Measurements of several laboratories.
± gives the spread as reported.
UniProt Q9C9E3, sequence (whole entry, looked up): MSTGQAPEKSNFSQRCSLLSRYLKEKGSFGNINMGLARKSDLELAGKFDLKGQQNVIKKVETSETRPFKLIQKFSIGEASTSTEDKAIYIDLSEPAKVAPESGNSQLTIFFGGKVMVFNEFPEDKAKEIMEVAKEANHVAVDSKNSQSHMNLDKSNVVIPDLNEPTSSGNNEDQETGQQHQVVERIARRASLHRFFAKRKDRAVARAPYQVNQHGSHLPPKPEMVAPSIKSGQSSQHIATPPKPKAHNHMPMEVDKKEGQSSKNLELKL
UniProt O04197, sequence (whole entry, looked up): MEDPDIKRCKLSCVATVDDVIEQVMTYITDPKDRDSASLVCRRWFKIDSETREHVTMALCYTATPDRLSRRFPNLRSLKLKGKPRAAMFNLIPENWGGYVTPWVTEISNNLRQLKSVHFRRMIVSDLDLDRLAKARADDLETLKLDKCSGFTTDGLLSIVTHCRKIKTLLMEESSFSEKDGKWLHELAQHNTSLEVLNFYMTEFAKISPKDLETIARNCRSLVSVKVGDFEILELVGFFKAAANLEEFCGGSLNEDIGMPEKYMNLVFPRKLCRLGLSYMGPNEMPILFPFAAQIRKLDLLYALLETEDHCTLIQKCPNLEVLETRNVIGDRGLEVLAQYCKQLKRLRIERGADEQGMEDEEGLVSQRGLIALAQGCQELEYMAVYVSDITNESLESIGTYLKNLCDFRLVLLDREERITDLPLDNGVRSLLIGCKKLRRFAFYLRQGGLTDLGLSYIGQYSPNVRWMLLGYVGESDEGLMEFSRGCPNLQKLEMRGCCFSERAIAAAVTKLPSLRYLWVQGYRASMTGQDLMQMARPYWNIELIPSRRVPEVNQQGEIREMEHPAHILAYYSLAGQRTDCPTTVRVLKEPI

The activation V0.5 of CC(C)C[C@@H]1NC(=O)[C@H](CCCNC(=N)N)NC(=O)[C@@H]2CCCN2C(=O)[C@@H]2CSSC[C@H](NC(=O)CNC(=O)[C@@H]3CCCN3C(=O)[C@H](CCCCN)NC(=O)[C@H](CC(=O)O)NC(=O)[C@@H](NC(=O)CN)C(C)C)C(=O)N[C@@H](CCCNC(=N)N)C(=O)N[C@@H](Cc3ccc(O)cc3)C(=O)N[C@@H](CC(C)C)C(=O)N[C@@H](Cc3ccccc3)C(=O)NCC(=O)NCC(=O)N[C@H]3CSSC[C@H](NC(=O)CNC1=O)C(=O)N[C@@H](CCCCN)C(=O)NCC(=O)N[C@@H](CCCCN)C(=O)NCC(=O)N[C@@H](Cc1c[nH]cn1)C(=O)N[C@@H](CC(=O)O)C(=O)N[C@@H](Cc1ccc(O)cc1)C(=O)N[C@H](C(=O)N[C@@H](C)C(=O)N[C@@H](Cc1c[nH]c4ccccc14)C(=O)N[C@@H](CC(=O)O)C(=O)NCC(=O)N[C@H](C(=O)N[C@@H](Cc1ccccc1)C(=O)N[C@@H](CO)C(=O)N[C@@H](CC(=O)O)C(=O)O)[C@@H](C)O)CSSC[C@H](NC(=O)[C@H](CC(=O)O)NC(=O)[C@H](CC(=O)O)NC(=O)[C@H](CC(=O)O)NC(=O)[C@H](CO)NC(=O)[C@H](CCCCN)NC3=O)C(=O)N2 is reported as 32.9 ± 0.4 mV (Potassium voltage-gated channel subfamily B member 1 (KCNB1, Homo sapiens, UniProt Q14721); tsA201; concentration not given).
`NTCP L161I (Macaca fascicularis)`: “binding relative to WT” 0.1 fold (preS1 fragment, N-myristoyl, TAMRA label (hepatitis B virus); preS1-TAMRA fluorescence; HepG2; read off a plot; relative to: human NTCP WT, higher = more preS1 binding).
C=C1C[C@](OC)([C@H](O)C(=O)NC[C@@H]2C[C@@H](OC)C(C)(C)[C@@H](C[C@@H](COC)OC)O2)O[C@H](C)[C@@H]1C has an IC50 of 0.002 ± 0.002 µM (B16; cell viability, sulforhodamine B; 72 h, 37 °C, without H2O2).
CCC1C=C(C(=O)NC2(C(=O)O)CC2CC)C2CCC(=O)C2C1 (stereo not shown) has a Kd of 0.068 µM (COI1/TIFY11B (Arabidopsis thaliana, UniProt O04197+Q9C9E3); binding, radioligand saturation binding; COI1-ASK1 complex; Arabidopsis thaliana proteins, added: full-length JAZ6).
